Measured values from different studies.
Non-standard residues stand in square brackets, D forms with d. No end group written: not given here.
bfrB: bfrB 1-158 (Pseudomonas aeruginosa, UniProt Q9HY79)
mcmA: mcmA (Methylobacterium extorquens, UniProt C5AV67)
T1: Ffh/4.5S SRP RNA (Escherichia coli); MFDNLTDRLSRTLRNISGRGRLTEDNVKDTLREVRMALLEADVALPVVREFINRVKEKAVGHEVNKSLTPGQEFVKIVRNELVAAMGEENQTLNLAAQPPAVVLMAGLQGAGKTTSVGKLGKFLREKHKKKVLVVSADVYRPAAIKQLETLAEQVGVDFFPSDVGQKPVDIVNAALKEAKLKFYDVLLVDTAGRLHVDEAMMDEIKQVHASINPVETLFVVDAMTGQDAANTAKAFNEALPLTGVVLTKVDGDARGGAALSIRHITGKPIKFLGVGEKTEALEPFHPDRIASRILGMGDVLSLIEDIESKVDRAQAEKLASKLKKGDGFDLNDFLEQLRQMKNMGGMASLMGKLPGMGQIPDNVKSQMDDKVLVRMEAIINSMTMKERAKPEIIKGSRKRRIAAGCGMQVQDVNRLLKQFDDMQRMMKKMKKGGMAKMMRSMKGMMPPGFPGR
B1: bfd 1-73 K40A/C43S (Pseudomonas aeruginosa, UniProt Q9HY80); chain MYVCLCQGVTDNQIRDAIYEGCCSYREVREATGVGTQCGACASLAKQVVRETLNDLQSAQPVPAFGTTAFVAA
B2: protein 1-329 K188A (Methylobacterium extorquens, UniProt C5AP93); chain MSATLPDMDTLRERLLAGDRAALARAITLAESRRADHRAAVRDLIDAVLPQTGRAIRVGITGVPGVGKSTTIDALGSLLTAAGHKVAVLAVDPSSTRTGGSILGDKTRMARLAIDRNAFIRPSPSSGTLGGVAAKTRETMLLCEAAGFDVILVETVGVGQSETAVADLTDFFLVLMLPGAGDELQGIAKGILELADMIAVNKADDGDGERRASAAASEYRAALHILTPPSATWTPPVVTISGLHGKGLDSLWSRIEDHRSKLTATGEIAGKRREQDVKWMWALVHERLHQRLVGSAEVRQATAEAERAVAGGEHSPAAGADAIATLIGL
B3: ftsY 47-497 K399A (Escherichia coli, UniProt P10121); chain ASEQAVEEQPQAHTEAEAETFAADVVEVTEQVAESEKAQPEAEVVAQPEPVVEETPEPVAIEREELPLPEDVNAEAVSPEEWQAEAETVEIVEAAEEEAAKEEITDEELETALAAEAAEEAVMVVPPAEEEQPVEEIAQEQEKPTKEGFFARLKRSLLKTKENLGSGFISLFRGKKIDDDLFEELEEQLLIADVGVETTRKIITNLTEGASRKQLRDAEALYGLLKEEMGEILAKVDEPLNVEGKAPFVILMVGVNGVGKTTTIGKLARQFEQQGKSVMLAAGDTFRAAAVEQLQVWGQRNNIPVIAQHTGADSASVIFDAIQAAKARNIDVLIADTAGRLQNKSHLMEELKAIVRVMKKLDVEAPHEVMLTIDASTGQNAVSQAKLFHEAVGLTGITLTKLDGTAKGGVIFSVADQFGIPIRYIGVGERIEDLRPFKADDFIEALFARED
B4: ICAM1 28-485 (Homo sapiens, UniProt P05362); sequence looked up; chain QTSVSPSKVILPRGGSVLVTCSTSCDQPKLLGIETPLPKKELLLPGNNRKVYELSNVQEDSQPMCYSNCPDGQSTAKTFLTVYWTPERVELAPLPSWQPVGKNLTLRCQVEGGAPRANLTVVLLRGEKELKREPAVGEPAEVTTTVLVRRDHHGANFSCRTELDLRPQGLELFENTSAPYQLQTFVLPATPPQLVSPRVLEVDTQGTVVCSLDGLFPVSEAQVHLALGDQRLNPTVTYGNDSFSAKASVSVTAEDEGTQRLTCAVILGNQSQETLQTVTIYSFPAPNVILTKPEVSEGTEVTVKCEAHPRAKVTLNGVPAQPLGPRAQLLLKATPEDNGRSFSCSATLEVAGQLIHKNQTRELRVLYGPRLDERDCPGNWTWPENSQQTPMCQAWGNPLPELKCLKDGTFPLPIGESVTVTRDLEGTYLCRARSTQGEVTRKVTVNVLSPRYEIVIIT
B5: spoIISB (Bacillus subtilis, UniProt O34800); selenomethionine; SeMet = C[Se]CC[C@H](N)C(=O)O; chain [SeMet]ERAFQNRCEPRAAKPFKILKKRSTTSVASYQVSPHTARIFKENERLIDEYKRKKA
B6: dnaG (Saccharolobus solfataricus, UniProt P95980); sequence looked up; chain MSFQMKYDIRLRFEVEGIVEKTDVIGAIFGQTENLFGDEFDLRELQDKGRLGRIIVEVKTKGGKSEGEIIIPSNLDRIETALIAAMVESVDKVGPYNSKFELIEIEDIRAEKLKKIIERAKGILSSWSKEKSLDIKEVINEISSAVKVGEITEYGPERLPAGPDVDKDPNLIIVEGRADVINLLRYGYKNVIAVEGATSRIPETLINLSKMKKTVIAFLDGDHGGDLILKELLSNNVKIDFVARAPIGREVEELTGKEIAKALSNMMPLTQYLKKVQEAEQAIAKNVIAKEEKPIQSETTQQVVQITLPQNILEEIKKLPGTLEGVLYDNNWNLIEKVQVRDIIPKLEAYEDNKVAYIIFDGVITQRLLDLASQKNIKMIIGARIGGINKRPQNVDILTFTDIISS
B7: bfd 1-73 C43S (Pseudomonas aeruginosa, UniProt Q9HY80); chain MYVCLCQGVTDNQIRDAIYEGCCSYREVREATGVGTQCGKCASLAKQVVRETLNDLQSAQPVPAFGTTAFVAA
B8: CpxR (Escherichia coli, UniProt P0AE88); phosphorylated aspartate; chain MNKILLVDDDRELTSLLKELLEMEGFNVIVAHDGEQALDLLDDSIDLLLLDVMMPKKNGIDTLKALRQTHQTPVIMLTARGSELDRVLGLELGADDYLPKPFNDRELVARIRAILRRSHWSEQQQNNDNGSPTLEVDALVLNPGRQEASFDGQTLELTGTEFTLLYLLAQHLGQVVSREHLSQEVLGKRLTPFDRAIDMHISNLRRKLPDRKDGHPWFKTLRGRGYLMVSAS
B9: hda (Escherichia coli, UniProt P69931); chain MNTPAQLSLPLYLPDDETFASFWPGDNSSLLAALQNVLRQEHSGYIYLWAREGAGRSHLLHAACAELSQRGDAVGYVPLDKRTWFVPEVLDGMEHLSLVCIDNIECIAGDELWEMAIFDLYNRILESGKTRLLITGDRPPRQLNLGLPDLASRLDWGQIYKLQPLSDEDKLQALQLRARLRGFELPEDVGRFLLKRLDREMRTLFMTLDQLDRASITAQRKLTIPFVKEILKL
B10: protein 1-329 Q185A (Methylobacterium extorquens, UniProt C5AP93); chain MSATLPDMDTLRERLLAGDRAALARAITLAESRRADHRAAVRDLIDAVLPQTGRAIRVGITGVPGVGKSTTIDALGSLLTAAGHKVAVLAVDPSSTRTGGSILGDKTRMARLAIDRNAFIRPSPSSGTLGGVAAKTRETMLLCEAAGFDVILVETVGVGQSETAVADLTDFFLVLMLPGAGDELAGIKKGILELADMIAVNKADDGDGERRASAAASEYRAALHILTPPSATWTPPVVTISGLHGKGLDSLWSRIEDHRSKLTATGEIAGKRREQDVKWMWALVHERLHQRLVGSAEVRQATAEAERAVAGGEHSPAAGADAIATLIGL
B11: fliQ (Salmonella enterica, UniProt P0A1L5); sequence looked up; chain MTPESVMMMGTEAMKVALALAAPLLLVALITGLIISILQAATQINEMTLSFIPKIVAVFIAIIVAGPWMLNLLLDYVRTLFSNLPYIIG

Substance	partner	assay	test system	conditions	scale	measurement	result
N-formyl-Met-Leu-Phe, N-formyl	FPR3 (Homo sapiens, UniProt P25089)	inhibition of forskolin-stimulated cAMP, agonist	CHO-K1			pEC50	< 6 pEC50
sseK2 (Salmonella enterica, UniProt Q8ZNP4)	FADD 97-181 (Homo sapiens, UniProt Q13158)	glycosylation		estimated	relative to: NleB1, higher = weaker substrate binding	Km worsening	95 fold
TBK1 fragment K584A (Homo sapiens)	STING1 (Homo sapiens, UniProt Q86WV6)	IFN-β luciferase reporter	TBK1 KO HEK293T	added: cGAMP	relative to: wild-type TBK1, higher = more reduction	reduction of IFN-β reporter	40%
Hcp (Agrobacterium tumefaciens)	tssL full length, His6 (Agrobacterium tumefaciens)	pull-down	membrane fraction	arsenate-treated, ATP-depleted cells, not purified	relative to: TssL-His in bound fraction, higher = more Hcp bound	relative Hcp signal	0.11
Smoc2 (UniProt Q8CD91)	Gpc6-YFP (UniProt Q9R087)	FRET		24 h, in cells	relative to: without SMOC2, higher = weaker binding	fold reduction of binding affinity	> 5 fold
Pebp1 fragment (Rattus norvegicus) (sequence not shown)	PRKACA fragment (Homo sapiens)	BLI		pH 6.5, 20 °C, added: apo		koff	0.00378 s⁻¹
B1 (bfd 1-73 K40A/C43S)	bfrB	Fe2+-bipyridine formation		added: NADPH 1 mM		iron release rate	0.09 min⁻¹
isdB fragment Y167D (Staphylococcus aureus)	HBA1/HBB methemoglobin (Homo sapiens)	heme transfer from methemoglobin				heme transfer rate constant	0.062 s⁻¹
envC residues 20-end (Pseudomonas aeruginosa)	ftsE 1-223 (Pseudomonas aeruginosa, UniProt A0A069QBX1)	ATPase activity			relative to: without EnvC, higher = more ATPase activity	ATPase activity	25 fold
B2 (protein 1-329 K188A)	mcmA	GTP hydrolysis		GAP activity, added: MCM 2-fold		kcat	0.00233 s⁻¹
HIP-4.39	HLA-DRA/HLA-DRB1*04:01 (Homo sapiens)	competition with biotinylated peptide, competitor, competition binding assay				IC50	240 nM
B3 (ftsY 47-497 K399A)	T1, Ffh/4.5S SRP RNA (Escherichia coli)	translocation			relative to: wild-type FtsY, higher = greater reduction	relative translocation efficiency	3 fold
B4 (ICAM1 28-485)	IT4VAR13 1-2691 (Plasmodium falciparum, UniProt A3R6S0)	SPR	Fc fusion	one-site fit		koff	0.00075 s⁻¹
B5 (spoIISB)	spoIISA cytoplasmic domain 92-248, selenomethionine (Bacillus subtilis, UniProt O34853)	X-ray crystallography				binding	binds
B6 (dnaG)	rrp41/rrp42/csl4 exosome, Csl4 homomeric cap (Saccharolobus solfataricus)	co-IP				binding	binds
STAU1 (Homo sapiens, UniProt O95793-2)	UPF1 (Homo sapiens, UniProt Q92900)	reporter mRNA in eIF4E IP, tethering, IP		in cells, not purified	relative to: λN-HA-GFP, higher = more enrichment	mRNA enrichment	2.2 fold
B7 (bfd 1-73 C43S)	bfrB	Fe2+-bipyridine formation		added: NADPH 1 mM		iron release rate	0.099 min⁻¹
B8 (CpxR)	ArcA, phosphorylated (Escherichia coli, UniProt P0A9Q1)	competition, FRET		added: phosphoramidate 20 mM		binding	binds
topoisomerase I large subunit (Leishmania donovani)	TOP1 636-765, fluorescein label (Homo sapiens, UniProt P11387)	supercoiled DNA relaxation		non-turnover		time of relaxed intermediate appearance	30 s
B9 (hda)	dnaN beta clamp 1-366 del148-154 (Escherichia coli, UniProt P0A988)	SEC-MALS				binding	binds
ipaB (Shigella flexneri)	mxiH (Shigella flexneri, UniProt P0A223)	co-purification, Western blot		Class IIa ipaD mutants	relative to: complemented strain, higher = more IpaB in needles	relative binding	150%
B10 (protein 1-329 Q185A)	mcmA	GTP hydrolysis		GAP activity, added: MCM 2-fold		kcat	0.00283 s⁻¹
B11 (fliQ)	fliR (Salmonella enterica, UniProt P54702)	cryo-EM				molecule per partner	4
Mos1 transposase T216A/D284A (Drosophila mauritiana)	MOS1 transposase T216A (Drosophila mauritiana)	NTS first strand cleavage		30 nM total protein	relative to: T216A transposase at 30 nM, higher = more cleavage	relative cleavage activity	46%
TERF2IP (Homo sapiens, UniProt Q9NYB0)	LMNB1 (Homo sapiens, UniProt P20700)	proximity ligation		in cells	relative to: control cells, higher = more interaction	PLA dots increase	5.1 fold
ALDOA (Oryctolagus cuniculus, UniProt P00883)	TRAP C-terminal cytoplasmic tail (Plasmodium falciparum)	SPR		two-state model		kd1	0.052 s⁻¹

Repeated from above:
Substance	partner	assay	test system	conditions	scale	measurement	result
ipaB (Shigella flexneri)	mxiH (Shigella flexneri, UniProt P0A223)	co-purification, Western blot		Class IIa ipaD mutants	relative to: complemented strain, higher = more IpaB in needles	relative binding	150%
B10 (protein 1-329 Q185A)	mcmA	GTP hydrolysis		GAP activity, added: MCM 2-fold		kcat	0.00283 s⁻¹
B11 (fliQ)	fliR (Salmonella enterica, UniProt P54702)	cryo-EM				molecule per partner	4
Pebp1 fragment (Rattus norvegicus) (sequence not shown)	PRKACA fragment (Homo sapiens)	BLI		pH 6.5, 20 °C, added: apo		koff	0.00378 s⁻¹
